# Results of several laboratories.
# Lines come from different studies, so protocols differ. Several values in a cell are separate wells, animals, samples, runs or records.
SMILES,target,assay,system,conditions,how to read,measurement,value
O=C(O)O,"sulfate/chloride exchanger, human",,neutrophils,external binding site,,Km,> 20 mM
Cc1c(CN2CCN(C(=O)[C@H](C)O)CC2)sc2c(N3CCOCC3)nc(-c3cnc(N)nc3)nc12,phospho-Akt,"Akt phosphorylation, inhibitor","human patients with peritoneal mesothelioma, plasma",PK-PD study,,IC50,0.017 µg/mL
c1ccc(-c2n[nH]cc2-c2ccnc3ccccc23)nc1,Pom1 kinase Candida albicans,MIB/MS competition binding,Candida albicans cell lysate,10 µM,"relative to: DMSO, lower = stronger binding",log2 fold change,0.0983
[Br-].[K+],"sulfate/chloride exchanger, human","sulfate influx, inhibitor",neutrophils,"external site, added: 2 µM nigericin, 85 mM K+",,Ki,43600 µM
COc1nnc2ccc(N3CCC(c4ccc(OCCN5CCN(C)C(=O)[C@H]5C)cc4)CC3)nn12,BRD4 (human),"qPCR, measured: BRD4 target genes","cancer patients, peripheral blood",dose not given,,time to maximum effect,2 to 3 h
N#Cc1ccn2c(-c3ccncc3)c(-c3ccc(F)cc3)nc2c1,Pom1 kinase Candida albicans,MIB/MS competition binding,Candida albicans cell lysate,1 µM,"relative to: DMSO, lower = stronger binding",log2 fold change,-0.241
[O]=[W](=[O])([OH])[OH],"sulfate/chloride exchanger, human","sulfate influx, inhibitor",neutrophils,"external site, added: 2 µM nigericin, 85 mM K+",,Ki,1190 µM and 1200 µM
[Ca+2],human TRPA1 W1103A,"ion current, two-electrode voltage clamp",Xenopus oocytes,"+80 mV, added: AITC, EGTA-AM 0.5 mM 20 min",,desensitization time constant,91.8 s and 177 s and 140 s and 139 s and 186 s and 116 s and 85 s
O=C(NC[C@H](O)CO)c1ccncc1Nc1ccc(I)cc1F,TDO2 human,inhibitor,A-172,1 µM,,kynurenine production,19.1%
Nc1ncnc2c1ncn2[C@@H]1O[C@H](COP(=O)(O)OP(=O)(O)OP(=O)(O)O)[C@@H](O)[C@H]1O,Nedd8-cullin1 interaction,"neddylation, AlphaScreen",,100 µM,,inhibition,14%
Oc1ccccc1-c1n[nH]cc1-c1ccnc2ccccc12,orf19.4144 Candida albicans,"kinase binding, MIB/MS competition",Candida albicans lysate,1 µM,relative to: DMSO,log2 fold change,0.11
CCCCc1nc(Cl)c(CO)n1Cc1ccc(-c2ccccc2-c2nn[nH]n2)cc1,Nedd8-cullin1 interaction,"neddylation, AlphaScreen",,100 µM,,inhibition,75.1%
O=C(O)C(=O)O,"sulfate/chloride exchanger, human",,neutrophils,external binding site,,Km,6.4 mM
C1CNCCN1.COc1cc(/C=C/C(=O)O)ccc1O.COc1cc(/C=C/C(=O)O)ccc1O,Nedd8-cullin1 interaction,"neddylation, AlphaScreen",,100 µM,,inhibition,-23.1%
COc1cc(Nc2ncc3c(n2)-c2ccc(Cl)cc2C(c2c(F)cccc2OC)=NC3)ccc1C(=O)NCCOCCOCCNC(=O)COc1cccc2c1C(=O)N(C1CCC(=O)NC1=O)C2=O (stereo not drawn),human EIF3J,"binding, kinobead competition",MV4-11 cell lysate,,,EC50,> 30 µM
CCOC(=O)[C@H](CCc1ccccc1)N[C@@H](C)C(=O)N1CCC[C@H]1C(=O)O,Nedd8-cullin1 interaction,"neddylation, AlphaScreen",,100 µM,,inhibition,17.8%
CCN1CCN(Cc2ccc(NC(=O)c3ccc(C)c(/C=C/c4cnc5[nH]ccc5c4OC)c3)cc2C(F)(F)F)CC1,ABL and ARG human,KiNativ,A-375 live cells,0.5 µM,,inhibition,> 98%
COc1ccc([C@@H]2Sc3ccccc3N(CCN(C)C)C(=O)[C@@H]2OC(C)=O)cc1,Nedd8-cullin1 interaction,"neddylation, AlphaScreen",,100 µM,,inhibition,-8.4%
O=C(NN=Cc1ccc(C[n+]2ccccc2)cc1)c1ccc2ccc3ccc(C(=O)NN=Cc4ccc(C[n+]5ccccc5)cc4)nc3c2n1.[Br-].[Br-],hairpin duplex DNA,UV melting,,"1 molar equivalents, DNA 3 µM",,ΔTm,0.1 °C
N#Cc1ccc2c(-c3ccncc3)c(-c3ccc(F)cc3)nn2c1,Pom1 kinase Candida albicans,MIB/MS competition binding,Candida albicans cell lysate,1 µM,"relative to: DMSO, lower = stronger binding",log2 fold change,-0.426
N=C(N)c1ccc(-c2ccc(-c3ccc(C(=N)N)cc3)o2)cc1,PRMT1,"enzyme activity, inhibitor",,,relative to: SAH IC50 over compound IC50,relative IC50,0.56
C#Cc1cc(-c2cc(Nc3nc(N[C@@H](C)c4ccc(F)cn4)ncc3Cl)n[nH]2)ccc1C=O,panel of 416 human kinases,kinase activity,,"200 nM, hit threshold 10",,number of kinase hits,37
c1coc(-c2n[nH]cc2-c2ccnc3ccccc23)c1,SAT4 (Candida albicans),"kinase binding, MIB/MS competition",Candida albicans lysate,10 µM,relative to: DMSO,log2 fold change,0.05
OCCN(CCO)c1nc(N2CCCCC2)c2nc(N(CCO)CCO)nc(N3CCCCC3)c2n1,Nedd8-cullin1 interaction,"neddylation, AlphaScreen",,100 µM,,inhibition,67.3%
CC[C@@H]1[C@H](F)C(=O)N[C@@H]1COc1nccc2cc(C(N)=O)c(OC)cc12,"Aurora A, B and C","ATP-site probe binding, inhibitor, ActivX ATP probe profiling",THP-1 cell lysate,"0.04 mM, ATP loop site",,inhibition,-1.3%
Cc1n[nH]c2ccc(-c3cc(OC[C@@H](N)Cc4ccccc4)cnc3-c3ccoc3)cc12,Pom1 kinase Candida albicans,MIB/MS competition binding,Candida albicans cell lysate,100 nM,"relative to: DMSO, lower = stronger binding",log2 fold change,-0.418
CCCSc1nc(N[C@@H]2C[C@H]2c2ccc(F)c(F)c2)c2nnn([C@@H]3C[C@H](OCCO)[C@@H](O)[C@H]3O)c2n1,Nedd8-cullin1 interaction,"neddylation, AlphaScreen",,100 µM,,inhibition,39.3%
CCc1ccc(NC(=O)Nc2c[nH]c3ccccc23)cc1,STING (mouse),inhibitor,HEK293T expressing mouse STING,"5 µM, 2 h, added: 100 µM cGAMP",,pIRF3 inhibition,inhibited
O=C([O-])[O-].O=C([O-])[O-].O=C([O-])[O-].[La+3].[La+3],Nedd8-cullin1 interaction,"neddylation, AlphaScreen",,100 µM,,inhibition,30.1%
O=CO,"sulfate/chloride exchanger, human",,neutrophils,external binding site,,Km,71.2 mM

# Repeated from above:
SMILES,target,assay,system,conditions,how to read,measurement,value
[Ca+2],human TRPA1 W1103A,"ion current, two-electrode voltage clamp",Xenopus oocytes,"+80 mV, added: AITC, EGTA-AM 0.5 mM 20 min",,desensitization time constant,91.8 s and 177 s and 140 s and 139 s and 186 s and 116 s and 85 s
O=C(NC[C@H](O)CO)c1ccncc1Nc1ccc(I)cc1F,TDO2 human,inhibitor,A-172,1 µM,,kynurenine production,19.1%
Nc1ncnc2c1ncn2[C@@H]1O[C@H](COP(=O)(O)OP(=O)(O)OP(=O)(O)O)[C@@H](O)[C@H]1O,Nedd8-cullin1 interaction,"neddylation, AlphaScreen",,100 µM,,inhibition,14%
Oc1ccccc1-c1n[nH]cc1-c1ccnc2ccccc12,orf19.4144 Candida albicans,"kinase binding, MIB/MS competition",Candida albicans lysate,1 µM,relative to: DMSO,log2 fold change,0.11
CCCCc1nc(Cl)c(CO)n1Cc1ccc(-c2ccccc2-c2nn[nH]n2)cc1,Nedd8-cullin1 interaction,"neddylation, AlphaScreen",,100 µM,,inhibition,75.1%
